Experimental data pooled from the literature.
A part holds a random share of what one study measured.

Set 1 — technique: RNA Bind-n-Seq; molecule type: RNA; matrix: in vitro; tested at: 1 µM; setting: whole 134-nt RNA, ends assumed; added: 150 mM KCl; reference: input library; direction: higher = stronger binding; quantity: log2 enrichment
Target: Ras GTPase-activating protein-binding protein 1, C-terminal RGG region (G3BP1, Homo sapiens, UniProt Q13283)
Sequence of UniProt Q13283 (whole entry, looked up): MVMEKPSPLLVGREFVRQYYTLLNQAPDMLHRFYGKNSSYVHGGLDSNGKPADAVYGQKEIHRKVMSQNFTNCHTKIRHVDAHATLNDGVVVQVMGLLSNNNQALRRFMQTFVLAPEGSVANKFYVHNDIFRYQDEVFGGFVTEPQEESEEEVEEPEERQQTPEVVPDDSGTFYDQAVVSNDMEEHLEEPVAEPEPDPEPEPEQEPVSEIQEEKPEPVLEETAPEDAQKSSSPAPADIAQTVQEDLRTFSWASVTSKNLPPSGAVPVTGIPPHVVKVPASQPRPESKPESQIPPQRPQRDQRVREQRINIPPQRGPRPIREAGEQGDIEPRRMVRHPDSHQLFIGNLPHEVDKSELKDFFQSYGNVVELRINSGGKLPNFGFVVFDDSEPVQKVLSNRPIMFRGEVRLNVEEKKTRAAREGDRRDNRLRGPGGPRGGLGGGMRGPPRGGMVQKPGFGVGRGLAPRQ
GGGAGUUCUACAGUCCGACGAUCGCAGGAAGUAAAAACAGAUGGAAAUGCUUCGGAUAGUGGCAGGGGUGGGGGUUGCUAAGGAAAGGGUGGGAUGGGAGUGGGUAAAGAGUUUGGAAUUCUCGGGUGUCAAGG: 1.6
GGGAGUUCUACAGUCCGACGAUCCAAGUCCUGUGCUACACAUCGUAUGUACCGAAUCGGGAAAGGAAAGGGGAAAGGGGAAAGUAUUAUGUUACGCCGUUCGGAUCUGCACUUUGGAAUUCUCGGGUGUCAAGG: -0.312
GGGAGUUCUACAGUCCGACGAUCUCAAGUCCUGUGCUACACAUCGUAUGUACCGAAUCGGGUGGGUUUGGGAAAGGGAAAGUAUUAUGUUACGCCGUUCGGAUCUGCACUUCCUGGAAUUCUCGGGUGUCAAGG: 1.65
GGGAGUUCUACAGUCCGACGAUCCAAGUCCUGUGCUACACAUCGUAUGUACCGAAUCGGAAAAAAAGGAAAGGUUUGGAAAGUAUUAUGUUACGCCGUUCGGAUCUGCACUUCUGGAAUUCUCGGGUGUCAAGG: -2.02
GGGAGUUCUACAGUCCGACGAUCUAACUUUAGAGGAGGAUCUGAUGGAUAUGGCAGUGGACGUGGAUUUGGGGAUGGCUAUAAUGGGUAUGGAGGAGGACCUGAAGGUGGCAAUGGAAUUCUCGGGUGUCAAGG: -1.08
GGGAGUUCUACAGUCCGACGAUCAGUCCUGUGCUACACAUCGUAUGUACCGAAUCGGGAAAAAAAGGGAGGGAAAAAGGGAAAGUAUUAUGUUACGCCGUUCGGAUCUGCACUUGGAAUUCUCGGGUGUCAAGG: 0.711
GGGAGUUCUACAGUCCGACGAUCCACAGACAACAUGCACCCACACAGACACAGAGGGAAGGGGUUGGGAUGGGGACAGGGUGCACAGCAGGGCGGGGUAGGACCCCAGCCCCUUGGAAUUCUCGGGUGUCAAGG: -0.545
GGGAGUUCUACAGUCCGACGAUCUCCUCAAGUCCUGUGCUACACAUCGUAUGUACCGAAUCGGCGGGCGGGCGGAAAGUAUUAUGUUACGCCGUUCGGAUCUGCACUUCCAGCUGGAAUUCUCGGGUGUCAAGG: -0.947
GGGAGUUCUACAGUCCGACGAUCUGGCCCUGGUGGCAUGAGGGGAGGAAGAGGUGGCCUCAUGGAUCGUGGUGGUCCCGGUGGAAUGUUCAGAGGUGGCCGUGGUGGAGACAGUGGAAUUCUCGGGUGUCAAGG: 1.99

Set 2 — technique: protein binding microarray; molecule type: double-stranded DNA, one strand shown; matrix: in vitro; tested at: not given; reference: not given; direction: higher = stronger binding; quantity: E-score
Target: Histone acetyltransferase KAT6A, winged helix 1, GST fusion (KAT6A, Homo sapiens, UniProt Q92794, residues 1-85)
Setting: 8-mer, flanks averaged, mean of 2 arrays, mostly near background
Target sequence (chain): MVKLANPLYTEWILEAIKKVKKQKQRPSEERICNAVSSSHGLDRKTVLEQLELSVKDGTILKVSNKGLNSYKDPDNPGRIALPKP
AGTCCAAA: -0.208
CACTTCTC: -0.135
GAACGGGA: 0.197
AAAATGGT: -0.273
AACTATCC: -0.0104
CTGTATTA: 0.0492
CTGTGTGA: -0.135
GCACAGTA: -0.0112
CTCCCGAG: -0.0347
CCTAGTCC: -0.025
GAAGCAAA: -0.207
TATCGAAA: 0.00492
GACAGGCC: -0.0466
CGTAGATC: 0.03
CGATATTA: 0.0847
ACAAATGG: 0.00282
CAGGAACA: -0.274
CAAAGATA: -0.165
AGTGCGTC: 0.158
TCAAAGGA: -0.0962
ACTTTACT: -0.0873
GGGAACGA: 0.0612
CGTTTCCC: 0.0927
CATCAGTC: -0.152

Set 3 — technique: Sort-seq; measured: YFP reporter; matrix: E. coli; setting: PhoQ-PhoP variant library; added: 10 µM Mg2+; reference: high Mg2+ state; direction: higher = stronger signaling; quantity: fold induction
Substance: PhoQ, residues 284 288 289 292 302 303 SSYNSA
PhoP, residues 12 14 15 18 19 TPWTL (Escherichia coli, UniProt P23836): 0.799
PhoP, residues 12 14 15 18 19 LHHYF (Escherichia coli, UniProt P23836): 23.5
PhoP, residues 12 14 15 18 19 NFFVT (Escherichia coli, UniProt P23836): 11.7
PhoP, residues 12 14 15 18 19 VGHWL (Escherichia coli, UniProt P23836): 2.13

Set 4 — technique: protein-binding microarray; molecule type: double-stranded DNA, one strand shown; matrix: in vitro; tested at: 250 nM; setting: 60-bp whole probe; added: salmon DNA 0.4 mg/ml; reference: random background probes; direction: higher = stronger binding; quantity: log fluorescence; all sequences stand within: GCCTAGCAC … GTCTTGATTCGCTTGACGCTGCTG
Target: Interferon regulatory factor 7, full length, phosphomimetic (IRF7, Homo sapiens, UniProt Q92985, residues 1-503, S101K/S471D/S472D/S475D/S476D/S477D/S483D/S484D/S487D)
Sequence of UniProt Q92985 (whole entry, unmodified, looked up): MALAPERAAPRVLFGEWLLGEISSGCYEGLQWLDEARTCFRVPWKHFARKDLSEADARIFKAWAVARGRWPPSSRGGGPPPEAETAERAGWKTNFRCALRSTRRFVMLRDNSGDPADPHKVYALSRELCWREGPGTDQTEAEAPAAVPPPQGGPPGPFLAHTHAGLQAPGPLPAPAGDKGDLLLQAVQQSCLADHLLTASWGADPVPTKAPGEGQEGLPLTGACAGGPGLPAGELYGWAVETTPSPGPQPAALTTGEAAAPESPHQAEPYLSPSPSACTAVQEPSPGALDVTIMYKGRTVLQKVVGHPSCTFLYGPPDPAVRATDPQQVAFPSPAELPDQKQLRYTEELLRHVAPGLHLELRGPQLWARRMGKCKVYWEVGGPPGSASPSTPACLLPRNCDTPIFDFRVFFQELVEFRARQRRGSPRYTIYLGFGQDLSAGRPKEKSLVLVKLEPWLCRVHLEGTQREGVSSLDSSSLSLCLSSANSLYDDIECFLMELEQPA
GACGGACTGCTCCTCCTGACGTGCTAG: -0.661 z-score
GACGGTATCGGGTATCGGCACGTGCTA: 0.293 z-score
TCTTGTCTGGATGTGCCTTAGTGCTAG: 0.085 z-score
GACGGACTGGGGACTGCGGACGTGCTA: -0.846 z-score
TTAGGTTTCGGGTATCGCTTAGTGCTA: 7.45 z-score
GACGGTTTCGGACAGGGGACGTGCTAG: 1.96 z-score
TGAGCTACAGATGAGGCTCGGTGCTAG: -0.14 z-score
GACGATATCAGTATCGAGGCGTGCTAG: 0.0301 z-score
TACGATATCGGGACTGGAGACGTGCTA: -0.188 z-score
GACGATAGCGGGTATCGAGACGTGCTA: -0.371 z-score
GACGATCTCAGACTGGCGACGTGCTAG: -0.216 z-score
TTAGGGCTGGGTATCGGTTAGTGCTAG: 0.209 z-score
AAGTTTCTCCTTTCGGAATAGTGCTAG: 5.4 z-score
GACGAACCGGGGTATCGAGACGTGCTA: -0.126 z-score
GAAGGTTTCGGGTTTCGGGACGTGCTA: 12 z-score
GACGGTATCCTTATCCGGACGTGCTAG: 0.42 z-score
TTAGGTATCTGTTTCGGTTAGTGCTAG: 4.91 z-score
TTAGAACTGAGCCTCGATTAGTGCTAG: 0.00832 z-score
TCAGGCTTTCCTTTATGACTGTGCTAG: -0.00811 z-score

A few entries again (set 2):
AGTGCGTC: 0.158
TCAAAGGA: -0.0962
ACTTTACT: -0.0873
